Results from different studies.
Lines come from different studies, so protocols differ. Numbers after ± are the reported error.

For `CCCC[C@H](NC(=O)COCCOCCNC(=O)CN1CCN(CC(=O)O)CCN(CC(=O)O)CC1)C(=O)N[C@H]1CC(=O)NCCCC[C@@H](C(N)=O)NC(=O)[C@H](Cc2c[nH]c3ccccc23)NC(=O)[C@H](CCCNC(=N)N)NC(=O)[C@@H](Cc2ccccc2)NC(=O)[C@H](Cc2c[nH]cn2)NC1=O` [fluorine-18 labelled], the tissue uptake was 1.96 ± 0.3 %ID/g (C57 mice B16-F10 melanoma, blood; intravenous, 0.37 MBq, 0.5 h).
The tissue uptake of `Cc1cc(C)n(CCN(CCN)CCCCCCNC(=O)[C@@H](N)Cc2c[nH]c3ccccc23)n1.[99Tc+].[C-]#[O+].[C-]#[O+].[C-]#[O+]` is reported as 0.5 ± 0.08 %IA/g (BALB/c nude mice, A549 xenograft, pancreas; intravenous, 4 h).
The tissue uptake of `COc1cccc(OC)c1-c1cc(C(=O)NC2(C(=O)O)C3CC4CC(C3)CC2C4)nn1-c1ccc(C(=O)N(C)CCCN(C)CCCN(C)C(=O)[C@H](CCCCNC(=O)[C@H](CC(C)C)NC(=O)C2OC2C(=O)O)NC(=O)CN2CCN(CC(=O)[O-])CCN(CC(=O)[O-])CCN(CC(=O)[O-])CC2)cc1C(C)C.[177Lu+3]` (mixture of isomers) is reported as 9.5 %ID/g (mouse, HT-29 xenograft, HT-29 tumour; 24 h post injection).
`CCCC[C@H](NC(=O)CNC(=O)CNC(=O)[C@H](CCCCNC(=O)[C@H](CC(=O)O)NC(=O)C(C)c1ccc(CC(C)C)cc1)NC(=O)CN1CCN(CC(=O)O)CCN(CC(=O)O)CCN(CC(=O)O)CC1)C(=O)N[C@H]1CC(=O)NCCCC[C@@H](C(N)=O)NC(=O)[C@H](Cc2c[nH]c3ccccc23)NC(=O)[C@H](CCCNC(=N)N)NC(=O)[C@@H](Cc2ccccc2)NC(=O)[C@H](Cc2c[nH]cn2)NC1=O` (stereo partly shown) [lutetium-177 labelled] gave a tissue uptake of 0.77 ± 0.15 %ID/g (C57 mouse, heart; intravenous, 2 h, together with: 10 µg NDP-MSH co-injection).
With `N#C[C@@H]1CC(F)(F)CN1C(=O)CNC(=O)c1ccnc2c(NC(=O)[C@H](CCCCNC(=O)CCOCCOCCOCCOCCOCCOCCNC(=O)CN3CCN(CC(=O)[O-])CCN(CC(=O)[O-])CCN(CC(=O)[O-])CC3)NC(=O)CCCc3ccc(I)cc3)cccc12.[177Lu+3]` the tissue uptake was 2.97 ± 0.8 %ID/g (mouse, U-87 MG tumour xenograft, lung; 24 h).
The tissue uptake of `O=C(O)CCCOc1ccc([18F])cc1-c1cc(-c2ccccc2C(F)(F)F)n(-c2ccccc2)n1` is reported as 2.22 ± 0.32 %ID/g (mouse, muscle; intravenous, dose not given, 30 min).
`COc1cccc(OC)c1-c1cc(C(=O)NC2(C(=O)O)C3CC4CC(C3)CC2C4)nn1-c1ccc(C(=O)N(C)CCOCCOCCN(C)C(=O)[C@H](CCCCNC(=O)[C@H](CC(C)C)NC(=O)C2OC2C(=O)O)NC(=O)CN2CCN(CC(=O)[O-])CCN(CC(=O)[O-])CCN(CC(=O)[O-])CC2)cc1C(C)C.[177Lu+3]` (mixture of isomers) gave a tissue uptake of 0.34 %ID/g (mouse, HT-29 xenograft, spleen; 72 h post injection).
`[123I]c1ccc2nc(-c3ccc(-n4ccnn4)nc3)cn2c1` has a tissue uptake of 10.1 ± 0.134 %ID/g (male Wistar rat, large intestine; intravenous, 4 MBq, 3 h).
`COc1cccc(OC)c1-c1cc(C(=O)NC2(C(=O)O)C3CC4CC(C3)CC2C4)nn1-c1ccc(C(=O)N(C)CCCN(C)C(=O)[C@H](CCCCNC(=O)[C@H](CC(C)C)NC(=O)C2OC2C(=O)O)NC(=O)CN2CCN(CC(=O)[O-])CCN(CC(=O)[O-])CCN(CC(=O)[O-])CC2)cc1C(C)C.[177Lu+3]` (mixture of isomers) gave a tissue uptake of 2.7 %ID/g (mouse, HT-29 xenograft, HT-29 tumour; 24 h post injection).
`CCCC[C@H](NC(=O)CCCCCCCNC(=O)CN1CCN(CC(=O)O)CCN(CC(=O)O)CC1)C(=O)N[C@H]1CC(=O)NCCCC[C@@H](C(N)=O)NC(=O)[C@H](Cc2c[nH]c3ccccc23)NC(=O)[C@H](CCCNC(=N)N)NC(=O)[C@@H](Cc2ccccc2)NC(=O)[C@H](Cc2c[nH]cn2)NC1=O` [fluorine-18 labelled] has a tissue uptake of 0.32 ± 0.14 %ID/g (C57 mice, B16/F10 melanoma, blood; intravenous, 1 h, together with: NDP-MSH 10 µg).
For `O=C(NCC1OC2CCC=CCCC2O1)c1ccc([18F])nc1` (stereo not shown), the tissue uptake was 6.4 ± 1.9 %ID/g (healthy female BALB/c nude mice, lungs; intravenous, 7.4 MBq per mouse, 10 min).
`N#C[C@@H]1CC(F)(F)CN1C(=O)CNC(=O)c1ccnc2c(NC(=O)[C@@H](N)CCCCNC(=O)CCOCCOCCOCCOCCOCCOCCNC(=O)CN3CCN(CC(=O)[O-])CCN(CC(=O)[O-])CCN(CC(=O)[O-])CC3)cccc12.[177Lu+3]` gave a tissue uptake of 0.17 ± 0.07 %ID/g (mouse, U-87 MG tumour xenograft, salivary gland; 24 h).
`COc1cccc(OC)c1-c1cc(C(=O)NC2(C(=O)O)C3CC4CC(C3)CC2C4)nn1-c1ccc(C(=O)NCCNC(=O)[C@H](CCCCNC(=O)[C@H](CC(C)C)NC(=O)C2OC2C(=O)O)NC(=O)CN2CCN(CC(=O)[O-])CCN(CC(=O)[O-])CCN(CC(=O)[O-])CC2)cc1C(C)C.[177Lu+3]` (mixture of isomers) gave a tissue uptake of 1.8 %ID/g (mouse, HT-29 xenograft, lung; 24 h post injection).
With `CC(C)Cc1ccc(C(C)C(=O)N[C@@H](CCCCNC(=O)CCOCCOCCOCCOCCOCCOCCNC(=O)CN2CCN(CC(=O)[O-])CCN(CC(=O)[O-])CCN(CC(=O)[O-])CC2)C(=O)Nc2cccc3c(C(=O)NCC(=O)N4CC(F)(F)C[C@H]4C#N)ccnc23)cc1.[177Lu+3]` (stereo partly shown) the tissue uptake was 0.67 ± 0.24 %ID/g (mouse, U-87 MG tumour xenograft, lung; 24 h).
`CC(C)C[C@H](NC(=O)[C@@H](CCCCNC(=O)[C@@H](Cc1ccccc1)NC(=O)CCCCCCCNC(=O)CN1CCN(CC(=O)O)CCN(CC(=O)O)CCN(CC(=O)O)CC1)NC(=O)[C@H](Cc1ccc(O)cc1)NC(=O)[C@H](CO)NC(=O)[C@H](Cc1c[nH]c2ccccc12)NC(=O)[C@H](Cc1c[nH]cn1)NC(=O)[C@@H]1CCC(=O)N1)C(=O)N[C@@H](CCCNC(=N)N)C(=O)N1CCC[C@H]1C(=O)NCC(N)=O` [indium-111 labelled] has a tissue uptake of 0.67 ± 0.16 %ID/g (biodistribution; male athymic nude mice, DU-145 prostate cancer xenograft, spleen; intravenous, 0.037 MBq, 0.5 h post-injection).
For `COc1cccc(OC)c1-c1cc(C(=O)NC2(C(=O)O)C3CC4CC(C3)CC2C4)nn1-c1ccc(C(=O)N(C)CCOCCN(C)C(=O)[C@H](CCCCNC(=O)[C@H](CC(C)C)NC(=O)C2OC2C(=O)O)NC(=O)CN2CCN(CC(=O)[O-])CCN(CC(=O)[O-])CCN(CC(=O)[O-])CC2)cc1C(C)C.[177Lu+3]` (mixture of isomers), the tissue uptake was 0.117 %ID/g (mouse HT-29 xenograft, small intestine; 72 h post injection, biodistribution).

A few entries again:
With `CC(C)Cc1ccc(C(C)C(=O)N[C@@H](CCCCNC(=O)CCOCCOCCOCCOCCOCCOCCNC(=O)CN2CCN(CC(=O)[O-])CCN(CC(=O)[O-])CCN(CC(=O)[O-])CC2)C(=O)Nc2cccc3c(C(=O)NCC(=O)N4CC(F)(F)C[C@H]4C#N)ccnc23)cc1.[177Lu+3]` (stereo partly shown) the tissue uptake was 0.67 ± 0.24 %ID/g (mouse, U-87 MG tumour xenograft, lung; 24 h).
`CC(C)C[C@H](NC(=O)[C@@H](CCCCNC(=O)[C@@H](Cc1ccccc1)NC(=O)CCCCCCCNC(=O)CN1CCN(CC(=O)O)CCN(CC(=O)O)CCN(CC(=O)O)CC1)NC(=O)[C@H](Cc1ccc(O)cc1)NC(=O)[C@H](CO)NC(=O)[C@H](Cc1c[nH]c2ccccc12)NC(=O)[C@H](Cc1c[nH]cn1)NC(=O)[C@@H]1CCC(=O)N1)C(=O)N[C@@H](CCCNC(=N)N)C(=O)N1CCC[C@H]1C(=O)NCC(N)=O` [indium-111 labelled] has a tissue uptake of 0.67 ± 0.16 %ID/g (biodistribution; male athymic nude mice, DU-145 prostate cancer xenograft, spleen; intravenous, 0.037 MBq, 0.5 h post-injection).
